Experimental data gathered from unrelated publications.
Protocols differ between the studies behind these lines. Values joined by “and” are separate records of one study, mostly repeats; a detail may differ. Numbers after ± are the reported error. ≈ marks a conversion by molar mass, not a printed value.

CCC(CC)[C@H](NC(C)=O)[C@@H]1[C@H](O)[C@@H](C(=O)O)C[C@H]1N=C(N)N  IC50 (influenza virus neuraminidase; enzyme activity, inhibitor, fluorescence; influenza virus): 118 µM
CNC(C)Cc1ccc2c(c1)OCO2 (racemic)  subjective drug effect rating (Drug Effects Questionnaire, refers to: Dislike Drug; human; oral, 1.5 mg/kg, mean over session, unit not given; reference: pre-dose baseline): 15.3
O=S(=O)(CC1CS1)c1ccc(Oc2ccccc2)cc1 (stereo not drawn)  fold increase in plasma Aβ (apoE4-TR mouse; intraperitoneal, 25 mg/kg, 10 min, added: intracranial human Aβ(1-42); reference: vehicle): 2 fold
CC(C)c1ccc2c(c1)CC[C@H]1[C@](C)(CN)CCC[C@]21C  IC50 (C8161.Cl 9 melanoma; cell viability, MTS; 48 h): 6.13 ± 0.53 µM
C#CCN(C)[C@H](C)Cc1ccccc1  DAO immunostaining intensity (D-amino acid oxidase; APP/PS1 mouse, GFAP-positive brain areas; oral, 10 mg/kg, 4 weeks): increased
C[C@H](CCC1=NC(C)(C)CO1)[C@H]1CC[C@H]2[C@@H]3[C@@H](O)C[C@@H]4C[C@H](O)CC[C@]4(C)[C@H]3CC[C@]12C  minimum concentration for complete inhibition (Clostridioides difficile; spore germination, OD600; NAP1; 20 min, added: 2000 µM taurocholate): 50 µM
N#CN=C1SCCN1Cc1ccc(Cl)nc1  IC50 (mAb-19F2 (BALB/c mouse monoclonal antibody); antibody binding, indirect competitive ELISA): > 1 µg/mL
c1ccc(CCCN2CCN(CCOC(c3ccccc3)c3ccccc3)CC2)cc1  IC50 (Pmat, rat; MPP+ uptake; MDCK expressing rat Pmat; 3 min, pH 7.4, 37 °C, added: 1 µM [3H]MPP+): 25.2 ± 1.4 µM
NC12CC3CC(CC(C3)C1)C2  CD80 expression (dendritic cells; flow cytometry; 10 µg/mL, 24 h; reference: untreated cells): increased
COC(=O)C1=CO[C@@H](O)[C@@H]2C(CO)=CC[C@H]12  viability (SK-N-SH; neuroprotection, MTT; 0.15 µM, 24 h, added: 250 µM H2O2): 71.4 ± 0.5%
CC(=O)N[C@@H](CC(C)C)C(=O)NCC(=O)N[C@@H](Cc1ccc(O)cc1)C(=O)NCC(=O)N[C@@H](CCCCN)C(N)=O  transition enthalpy (DSC; SOPC/cholesterol 7/3 bilayers; 10 mol%, pH 7.40): 1.4 kcal/mol
CP(=O)(O)CCC(N)C(=O)O (stereo not drawn)  herbicidal activity (Setaria faberi; 500 g/ha, 13 days, SETFA, post-emergence spray; reference: untreated (0%), complete kill (100%)): 100%
CC(=O)N[C@@H](CC(C)C)C(=O)N1CCC[C@H]1C(=O)N[C@@H](Cc1ccc(O)cc1)C(=O)N1CCC[C@H]1C(=O)N[C@@H](CCCCN)C(N)=O  transition enthalpy (DSC; SOPC/cholesterol 6/4 bilayers; 5 mol%, pH 7.40): 0.2 kcal/mol
COc1ccc2c(c1)[nH]c1c(C)nccc12  IC50 (hedgehog pathway; alkaline phosphatase activity, inhibitor; C3H10T1/2; 5 days, added: Shh): 14.1 µM
O=C(N/N=C1\C(=O)Nc2ccc([N+](=O)[O-])cc21)N/N=C1\C(=O)Nc2ccc([N+](=O)[O-])cc21  EC50 (influenza A virus; cytopathic effect, MTS; MDCK, H1N1): 55 ± 26 µM
pneumocandin K  MIC (Candida albicans; broth microdilution, resazurin; ATCC 10231; 24 h, 35 °C): 0.2 µg/mL
C#Cc1ccc2c(c1)C(c1ccccc1F)=NCc1c(-c3cnco3)ncn1-2  zones cleared (ICR mouse, lactic acid-depressed nesting; dose not given, 60 min nesting period; reference: vehicle): increased
CCC[C@@H](C(=O)c1ccc2c(c1)OCO2)N1CCCC1  IC50 (anti-α-PVP/MDPV polyclonal antibody (rat); binding, competitive radioimmunoassay; rat serum, 11 weeks post-immunisation; added: tritium-labelled drug): 0.0066 ± 0.0023 µM
Cc1ccc2c(c1)/C(=N/NC(=O)N/N=C1\C(=O)Nc3ccc(C)cc31)C(=O)N2  EC50 (influenza A virus; cytopathic effect, MTS; MDCK, H1N1): > 20 µM
COC[C@H](NC(C)=O)C(=O)NCc1ccccc1  IC50 (voltage-gated sodium channel; peak sodium current, inhibitor, whole-cell patch clamp; CAD; 0 mV from -80 mV holding): > 500 µM
CC[C@H](C)[C@H](NC(=O)CNC(=O)[C@H](Cc1c[nH]c2ccccc12)NC(=O)CNC(C)=O)C(=O)N[C@@H](CCCCN)C(N)=O  transition enthalpy (DSC; SOPC/cholesterol 7/3 bilayers; 10 mol%, pH 7.40): 0.8 kcal/mol
COc1cccc(C=NNC(=O)CN2c3c(n[nH]c3-c3cccc(Cl)c3)-c3ccccc3S2(=O)=O)c1  EC90 (HIV-1; viral replication; PBMC): > 10 µM
leucinostatin B2  GI50 (MDA-MB-453; sulforhodamine B; 48 h, LAR subtype TNBC): 0.004 ± 0.0007 µM
C=CC=C[C@@H]1CC2=CC(=O)CC[C@]2(C)[C@H]2CC[C@]3(C)[C@H](O)CC[C@H]3[C@H]12  IC50 (LNCaP; cell growth, MTT; 48 h): 16.6 µM
CC(N)C12CC3CC(CC(C3)C1)C2 (stereo not drawn)  EC50 (influenza A virus; cytopathic effect, visual CPE score; MDCK, H1N1): > 200 µM
O=c1[nH]c(=O)c2[nH]c(=O)[nH]c2[nH]1  melting temperature (MftR R89N (Burkholderia thailandensis); concentration not given): 55.9 °C and 63 °C
Cc1c(Cc2ccc(F)cc2F)c(=O)n2c([nH]c3ccccc32)c1C#N  IC50 (Vero; cell growth or viability): 8 µg/mL
O=C(N/N=C1\C(=O)Nc2ccccc21)N/N=C1\C(=O)Nc2ccccc21  EC50 (Influenza A virus H3N2; viral replication, MTS; MDCK): > 100 µM
NNC(=O)Cn1c2ccccc2c2cn[nH]c(=O)c21  MDM2 mRNA fold change (MCF7; 5 µM, 48 h; reference: β-actin normalised): 6.01
CC(C)C1NC(=O)C(C(=O)NC(C(=O)NC2C(=O)N3C2SC(C)(C)C3C(=O)O)c2ccccc2)=C1O (stereo not drawn)  MIC (Escherichia coli; broth microdilution; BW25113, Mueller-Hinton broth; added: CCCP 50 µg/mL): 25 µg/mL (≈ 48.4 µM)
Cc1c(Cc2ccc(Cl)cc2)c(=O)n2c([nH]c3ccccc32)c1C#N  IC50 (Vero; cell growth or viability): 8 µg/mL
CCC(CC)O[C@@H]1C=C(C(=O)O)C[C@H](N)[C@H]1NC(C)=O  EC50 (Influenza A virus H3N2; viral replication, MTS; MDCK): 5.45 ± 4.05 µM
C#Cc1ccc2c(c1)C(c1ccccn1)=NCc1c(-c3cnco3)ncn1-2  effective dose (writhing reduction; mouse, acetic acid writhing; subcutaneous, added: 0.6% acetic acid i.p.; reference: vehicle): 5.6 mg/kg and 10 mg/kg
leucinostatin D  GI50 (MDA-MB-231 resistant; sulforhodamine B; 48 h): > 0.1 µM
O=C1/C(=N\NC(=S)NN=Cc2ccccc2)c2ccccc2N1Cc1ccccc1  EC50 (influenza A virus; cytopathic effect, MTS; MDCK, H1N1): > 100 µM
CCNC(=O)[C@H]1O[C@@H](n2cnc3c(N)ncnc32)[C@H](O)[C@@H]1O  IC50 (HL-1, human A3AR-transfected; protection from cell death, LDH release; 4 h, pretreatment 1 h, added: H2O2 750 µM): 3.9 ± 1.8 µM
